# Results from different studies.
# Compare with care: the assays were run in different laboratories. “And” joins repeats or separate records; there may be more than shown. Numbers after ± are the reported error.
SMILES,tested on,test,test system,conditions,scale,measurement,result
CCn1cc(-c2cc(Cn3ccnc3)cc3c2CCN([C@H](c2cc(OC)ccn2)C2CC2)C3=O)c(C(F)(F)F)n1,KURAMOCHI,"cell growth, inhibitor",,120 h,,EC50,9.97 µM
COc1c(C)c(OS(=O)(=O)c2ccc3ccccc3c2)c(C)c(O)c1C(=O)/C=C/c1ccccc1,SH-SY5Y,SRB,,,relative to: normal over SH-SY5Y IC50,selectivity index,1.86
CCCCCCCCCCCCCCCCCCOc1ccccc1CC(=O)OCC[N+]1(C)CCCC1,NSCLC panel (nine cell lines),,,10 µM,,mean growth inhibition,68.1%
Cc1ccc(CNC(=O)Cn2cc(CSc3nc4ccccc4[nH]3)nn2)cc1,HEK293,MTT,,31.3 ppm,,cytotoxicity,82.8%
CCCCc1nc(Cl)c(CO)n1Cc1ccc(-c2ccccc2-c2nn[nH]n2)cc1,human PBMC,"RNA-seq, refers to: DNER mRNA",,"10 µg/mL, 24 h",relative to: untreated control,log2 fold change,2.4
CC(C)NCC(O)c1ccc(O)c(O)c1 (stereo not drawn),mouse ventricular cardiomyocytes,,,"dose not given, 0.299 s",,sarcomere length,1.8 µm
C[C@H]1[C@@H](O)O[C@@H]2O[C@@]3(C)CC[C@H]4[C@H](C)CC[C@@H]1[C@@]24OO3,THP-1,"annexin V/PI flow cytometry, refers to: annexin V-/PI-",,"0.2 µM, 24 h",,viable cells,96.2%
C=CC1=C(C)c2cc3[n-]c(cc4nc(cc5[n-]c(cc1n2)c(C)c5C=C)C(C)=C4CCC(=O)O)c(CCC(=O)O)c3C.[Zn+2],SH-SY5Y,"RNA-seq, refers to: XYLT1 mRNA",,"5 µM, 5 h",relative to: untreated cells,fold change,1.79
CC(C)(C(=O)N1CCOc2c(C#N)cncc2C1)C(F)F,,refers to: ventricular extrasystoles,"healthy humans, both sexes","oral, 10 mg single dose",,subjects with TEAE,16.7%
COc1c(C)c(OC(C)=O)c(C)c(OC(C)=O)c1C(=O)/C=C/c1ccccc1,KKU-M213,SRB,,,relative to: normal over KKU-M213 IC50,selectivity index,0.98
Clc1nc(NCc2ccco2)c2[nH]cnc2n1,"iPSC-derived cardiomyocytes, GLA mutant",RNA-seq,,FDR below 0.05,,share of splicing events affected,0.23%
CCCCN1C[C@H](O)[C@@H](O)[C@@H](O)[C@H]1CO,sample D patient fibroblasts,"acidic compartment staining, LysoTracker Red imaging",,216 h,,IC50,1.4 µM
COc1ccc(C#N)cc1-c1c[nH]c2ncc(-c3cncc(C(=O)N(C)C)c3)cc12,Ba/F3 BCR-ABL wild type,cell proliferation,,72 h,,GI50,0.59 ± 0.0366 µM
CC(=O)N[C@@H](CCCCN)C(=O)N[C@@H](CCCNC(=N)N)C(=O)N[C@H](C(=O)N[C@@H](Cc1c[nH]cn1)C(=O)N[C@@H](Cc1ccccc1)C(N)=O)C(C)C,HeLa cells,"calcium release, Fluo-4 imaging",,100 µM,,responder cells,0%
CCc1cnc(N2CCC(c3nc(COc4ccc(-n5cnnn5)cc4)cs3)CC2)nc1,HEK-293T,"RNA-seq GSEA, refers to: Hallmark apoptosis",,concentration not given,direction not given,normalized enrichment score,1.22
O=C(NCC1CCOCC1)c1ccc([C@H]2[C@@H](F)[C@@H](F)C[C@@H](F)[C@H]2F)cc1,,liver microsome stability,human liver microsomes,"1 µM, without NADPH",,hepatic clearance,3.9 mL/min/kg
Cn1cc(-c2ccc(-c3cncc(Cl)c3N3CCC4(CCNC4=O)CC3)cc2)cn1,COLO 205,"gene expression, microarray, refers to: LMNA mRNA",,"concentration not given, 2 h",relative to: untreated cells,log2 fold change,1.91
Nc1cccc2c1C(=O)N(C1CCC(=O)NC1=O)C2=O (stereo not drawn),MM1.S resistant to compound,XTT,,1.6 µM,,viability,17% and 23% and 28%
CCCCCN1C[C@H](O)[C@@H](O)[C@H](O)[C@@H]1CO,Sandhoff disease patient fibroblasts,"glycosphingolipid lowering, LC-MS/MS, refers to: HexCer d18:0/22:0",,,,IC50,0.559 µM
CN(C)CCCC1(c2ccc(F)cc2)OCc2cc(C#N)ccc21 (stereo not drawn),SH-SY5Y,neurite outgrowth,,nominal concentration,relative to: IC10 over EC10,specificity ratio,6.24
O=c1[nH]nc(OCCCc2ccc(Cl)cc2)c(NCc2cccnc2)c1Br,HEK-293T,"RNA-seq GSEA, refers to: HALLMARK_HEDGEHOG_SIGNALING",,concentration not given,direction not given,normalized enrichment score,1.24
Nc1ccc(-c2ccc3ncc4ccc(=O)n(-c5cccc(C(F)(F)F)c5)c4c3c2)cn1,SNU-1040,,,"330 nM, 3 days, 100% DMSO",relative to: vehicle,cell growth,75.6%
c1ccc2[nH]ccc2c1,HCT-8,"RNA-seq, refers to: ZNF763",,concentration not given,,"mRNA level, LS mean",3.09 counts per million
Cc1cc(Nc2ncc(Cl)c(Nc3ccccc3S(=O)(=O)C(C)C)n2)c(OC(C)C)cc1C1CCNCC1,CLB-GE,"phosphoproteomics LC-MS/MS, refers to: AKT3 phosphorylation",,"200 nM, 60 min",relative to: untreated,log2 fold change,-1.61
O=c1ccn([C@@H]2O[C@H](CO)[C@@H](O)[C@H]2O)c(=O)[nH]1,activated human T cells,,human,10 µM,,T cell proliferation,98.2% and 97.1% and 107% and 106% and 101%
CCn1cc(-c2cc(Cn3ccoc3=N)cc3c2CCN([C@@H](C)c2cc(OC)ccn2)C3=O)c(C(F)(F)F)n1,COLO-741,"cell growth, inhibitor",,120 h,,EC50,0.482 µM
CCCCCCCCCCCCCCCCCCOc1cccc(CC(=O)OCC[N+](CC)(CC)CC)c1,NSCLC panel (nine cell lines),,,10 µM,,mean growth inhibition,40.3%
O=C(/C=C/C=C/C=C/C1CCCCC1)NC1=C[C@@](O)(/C=C/C=C/C=C/C(=O)NC2=C(O)CCC2=O)[C@@H]2O[C@@H]2C1=O,SW1990,"cell growth, CellTiter-Glo",,78 h,,GI50,15.1 µM
O=C1[C@H]2CCCN2[C@H](c2cccc3c2OCO3)N1c1ccc(Cl)c(Cl)c1 (racemic),PC-12,,,50 µM,,mutant huntingtin aggregates per cell,no effect
CCCCCCCCCCCCCCCCCCOc1ccccc1CC(=O)OCC[N+](CC)(CC)CC,NSCLC panel (nine cell lines),,,10 µM,,mean growth inhibition,66.3%
Nc1ncnc2c1ncn2[C@@H]1O[C@H](CO)[C@@H](O)[C@H]1O,activated human T cells,,,1 µM,higher = more IFNγ,IFNγ production,469 a.u. and 365 a.u. and 371 a.u.
CC/C(=N\NC(=O)NCc1cccc(O)c1)c1ccc(O)c(C)c1O,SK-OV-3,Western blot,,"10 µM, 3 h, 2D culture, unit not given",relative to: DMSO,LATS band intensity,1.17 ± 0.98
COc1cnc2cccc(N3CCc4c(cc(Cn5ccnc5C)cc4-c4cn(C)nc4C(F)(F)F)C3=O)c2c1,DLD-1,"cell growth, inhibitor",,120 h,,EC50,> 30 µM
COc1c(C)c(OC(=O)c2ccc(C)cc2)c(C)c(O)c1C(=O)/C=C/c1ccccc1,SH-SY5Y,SRB,,,relative to: normal over SH-SY5Y IC50,selectivity index,1.63
CC(C)(C)c1cnc(CSc2cnc(NC(=O)C3CCNCC3)s2)o1,SNU-1040,,,"0.33 µM, 72 h, 100% DMSO",relative to: vehicle,cell growth,90%
Cc1cccc(-c2[nH]c(CNc3ccccc3F)nc2-c2ccc3ncnn3c2)n1,MM1.S pomalidomide-resistant,XTT,,0.25 µM,,viability,101% and 97% and 96%
CC(=O)c1nn(-c2ccc(Cl)cc2)/c(=N/N=C(\C)c2ccc(NC(=O)c3ccccc3)cc2)s1,HepG2,,,0.156 µM,,toxicity,45.8% and 61.7%
NS(=O)(=O)c1cccc(-c2ccc(C3CCCCC3)cc2)c1,,liver microsome stability,human liver microsomes,"1 µM, without NADPH",,hepatic clearance,3.9 mL/min/kg
COc1cc(/C=C/C(=O)N2CCC=CC2=O)cc(OC)c1OC,MDA-MB-468,"quantitative RT-PCR, refers to: CDKN2A",,"30 µM, 8 h",relative to: untreated cells,mRNA level,79.6 ± 49.9%
Nc1ncnc2nc(-c3ccc(N4CCOCC4)nc3)cc(-c3cccc(Br)c3)c12,activated human T cells,,human,31.6 nM,,T cell proliferation,74.2% and 63.6% and 69.3%
CCN(CCO)CCCC(C)Nc1ccnc2cc(Cl)ccc12 (stereo not drawn),human PBMC,"qRT-PCR, refers to: IFI44L mRNA",,"1000 nM, with: ssRNA",,inhibition,14 ± 18%
COc1ccc(-n2nc(C(C)=O)s/c2=N\N=C(/C)c2ccc(NC(=O)c3ccc(Cl)cc3)cc2)cc1,HepG2,,,0.625 µM,,viability,12.4%
CC(C)NCC(O)c1ccc(O)c(O)c1 (stereo not drawn),3T3-L1 mature adipocytes,"lipolysis, Oil Red O staining",,IC20,,mean lipid content,0.678 OD492
O=C(C[C@@H](C(F)F)n1ccc(F)n1)N1CCC(O)(Cn2cnc3c(cnn3-c3ccc(F)cc3)c2=O)CC1,CHP-212 resistant,annexin V/PI flow cytometry,,"0.3 µM, 48 h",,necrotic cells,4.6% and 4.93% and 3.31%
Cc1nn(-c2nc3c(F)cc(F)cc3s2)c(O)c1C(c1ccc(C(F)(F)F)cc1)c1c(C)nn(-c2nc3c(F)cc(F)cc3s2)c1O,RAW-ISG,western blot,,"5 µM, with: HT-DNA",relative to: DMSO,phospho-TBK1 to TBK1 ratio,0.687 and 0.88
CC(C)(c1ccc(O)cc1)c1ccc(O)cc1,HepG2 spheroids,Hoechst flow cytometry,,"40 µM, 24 h",,S phase cells,8.86 ± 2.2%
NC1(c2ccc(-c3nc4ccn5c(=O)[nH]nc5c4cc3-c3ccccc3)cc2)CCC1,T47D compound-resistant,cell viability,,72 h,relative to: EC50 resistant over wild-type T47D,resistance fold,5.3
Cn1cc(Nc2nccc(-c3ccc4c(c3)CN(C3COC3)CC[C@H]4NC(=O)c3cn(C(C)(C)C)nn3)n2)cn1,human B cells,,,"100 nM, 64 h, non-stimulation-regulated genes, with: CD40L, anti-IgM, IL-21",,number of upregulated genes,126

# Excerpt of the above:
SMILES,tested on,test,test system,conditions,scale,measurement,result
Cc1nn(-c2nc3c(F)cc(F)cc3s2)c(O)c1C(c1ccc(C(F)(F)F)cc1)c1c(C)nn(-c2nc3c(F)cc(F)cc3s2)c1O,RAW-ISG,western blot,,"5 µM, with: HT-DNA",relative to: DMSO,phospho-TBK1 to TBK1 ratio,0.687 and 0.88
COc1ccc(-n2nc(C(C)=O)s/c2=N\N=C(/C)c2ccc(NC(=O)c3ccc(Cl)cc3)cc2)cc1,HepG2,,,0.625 µM,,viability,12.4%
Nc1ncnc2c1ncn2[C@@H]1O[C@H](CO)[C@@H](O)[C@H]1O,activated human T cells,,,1 µM,higher = more IFNγ,IFNγ production,469 a.u. and 365 a.u. and 371 a.u.
c1ccc2[nH]ccc2c1,HCT-8,"RNA-seq, refers to: ZNF763",,concentration not given,,"mRNA level, LS mean",3.09 counts per million
